{"data": "Results gathered from unrelated publications", "note": "Each numbered part is a random draw from the data of one study; scales do not carry over between parts."}
{"data": "Set 1", "target": "Sal-like protein 4, full length isoform A (SALL4, Homo sapiens, UniProt Q9UJQ4, residues 1-1053)", "method": "universal PBM", "form": "double-stranded DNA, one strand shown", "sample": "in vitro", "concentration": "600 nM", "setting": "8-mer, flanks averaged, mean of replicates", "reading": "higher = stronger binding", "sequence of UniProt Q9UJQ4 (whole entry, looked up)": "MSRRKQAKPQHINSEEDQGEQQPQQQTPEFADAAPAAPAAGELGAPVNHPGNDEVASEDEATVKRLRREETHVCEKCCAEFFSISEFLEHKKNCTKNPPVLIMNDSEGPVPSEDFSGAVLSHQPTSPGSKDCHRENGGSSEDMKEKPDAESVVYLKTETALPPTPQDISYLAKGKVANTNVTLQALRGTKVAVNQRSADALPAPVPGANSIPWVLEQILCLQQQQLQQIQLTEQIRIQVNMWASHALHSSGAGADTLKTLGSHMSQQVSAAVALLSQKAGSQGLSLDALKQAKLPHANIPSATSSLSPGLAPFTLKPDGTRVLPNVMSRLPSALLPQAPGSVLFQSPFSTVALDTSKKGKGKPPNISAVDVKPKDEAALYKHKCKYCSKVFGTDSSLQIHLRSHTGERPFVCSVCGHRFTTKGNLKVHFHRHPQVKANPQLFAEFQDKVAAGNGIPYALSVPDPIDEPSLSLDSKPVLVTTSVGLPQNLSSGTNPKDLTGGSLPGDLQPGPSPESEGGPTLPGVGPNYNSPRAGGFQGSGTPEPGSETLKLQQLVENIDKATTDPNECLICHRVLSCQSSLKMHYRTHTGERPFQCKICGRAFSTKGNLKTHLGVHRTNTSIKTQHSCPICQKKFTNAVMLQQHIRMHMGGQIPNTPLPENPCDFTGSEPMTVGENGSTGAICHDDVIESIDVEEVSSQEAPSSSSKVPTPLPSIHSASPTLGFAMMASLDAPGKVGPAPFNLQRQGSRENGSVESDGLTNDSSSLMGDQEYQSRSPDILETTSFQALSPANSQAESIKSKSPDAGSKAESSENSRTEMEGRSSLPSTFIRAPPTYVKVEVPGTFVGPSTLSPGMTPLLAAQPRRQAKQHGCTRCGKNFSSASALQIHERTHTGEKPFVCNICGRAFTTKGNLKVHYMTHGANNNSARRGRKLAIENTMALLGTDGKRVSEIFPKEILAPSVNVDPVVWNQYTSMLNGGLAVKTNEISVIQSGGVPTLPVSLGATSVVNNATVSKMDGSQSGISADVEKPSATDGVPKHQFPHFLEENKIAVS"}
{"Oligonucleotide": "TTCGCAAA", "E-score": 0.196}
{"Oligonucleotide": "ACTTGTCT", "E-score": 0.0878}
{"Oligonucleotide": "GTGGCCTA", "E-score": -0.179}
{"Oligonucleotide": "CCTCCCAA", "E-score": -0.115}
{"Oligonucleotide": "TCAACGAA", "E-score": 0.121}
{"Oligonucleotide": "GACTTGCC", "E-score": -0.312}
{"Oligonucleotide": "CCACTGCG", "E-score": -0.184}
{"Oligonucleotide": "CTTTTACA", "E-score": 0.257}
{"Oligonucleotide": "CAAATTGG", "E-score": 0.215}
{"Oligonucleotide": "CCACCAAG", "E-score": -0.293}
{"Oligonucleotide": "AGGCATTC", "E-score": -0.129}
{"Oligonucleotide": "GAGCGTGC", "E-score": -0.182}
{"data": "Set 2", "target": "Prothrombin, mature alpha-thrombin (F2, Homo sapiens, UniProt P00734)", "method": "aptamer microarray, sandwich", "form": "DNA with 2'F-ANA", "sample": "in vitro", "concentration": "200 nM", "setting": "whole 15-mer aptamer, many near background", "with": "Cy3 exosite-II aptamer, 400 nM", "reading": "higher = stronger binding", "oligonucleotide": "GGTTGGTGTGGTTGG"}
{"Modification": "2'F-ANA at 1 3 5 7 8 9 10 11 12", "mean fluorescence intensity [a.u.]": 49.4}
{"Modification": "2'F-ANA at 1 3 4 8 11 13", "mean fluorescence intensity [a.u.]": 185}
{"Modification": "2'F-ANA at 1 5 6 9 13", "mean fluorescence intensity [a.u.]": 51.6}
{"Modification": "2'F-ANA at 1 3 6 9 10 11 14 15", "mean fluorescence intensity [a.u.]": 59}
{"Modification": "2'F-ANA at 1 3 4 6 7 9 10 12 14", "mean fluorescence intensity [a.u.]": 63.5}
{"Modification": "2'F-ANA at 2 4 7 8 10 11 12 13 14", "mean fluorescence intensity [a.u.]": 63.2}
{"Modification": "2'F-ANA at 1 2 3 6 9 11 13 14 15", "mean fluorescence intensity [a.u.]": 112}
{"Modification": "2'F-ANA at 1 2 3 4 6 8 13 14 15", "mean fluorescence intensity [a.u.]": 71.9}
{"Modification": "2'F-ANA at 1 4 6 7 8 9 14 15", "mean fluorescence intensity [a.u.]": 55.9}
{"data": "Set 3", "Substance": "PhoQ, residues 284 288 289 292 302 303 TLSLKA", "method": "Sort-seq", "item": "YFP reporter", "sample": "E. coli", "setting": "PhoQ-PhoP variant library", "with": "10 µM Mg2+", "baseline": "high Mg2+ state", "reading": "higher = stronger signaling"}
{"target": "PhoP, residues 12 14 15 18 19 HHYTI (Escherichia coli, UniProt P23836)", "fold induction": 10.1}
{"target": "PhoP, residues 12 14 15 18 19 SFCSL (Escherichia coli, UniProt P23836)", "fold induction": 9.78}
{"target": "PhoP, residues 12 14 15 18 19 AYFRS (Escherichia coli, UniProt P23836)", "fold induction": 2.79}
{"data": "Set 4", "target": "RING finger protein unkempt homolog, zinc fingers 1-6, SBP tag (UNK, Homo sapiens, UniProt Q9C0B0, residues 30-357)", "method": "RNA Bind-n-Seq", "form": "RNA", "sample": "in vitro", "concentration": "100 nM", "setting": "RNA with constant flanks, vertebrate orthologous sites, ends assumed", "baseline": "input RNA pool", "reading": "higher = stronger binding", "all sequences stand within": "GGGAGUUCUACAGUCCGACGAUC … CAACAGAGGAUUGAGCAUCA", "sequence of UniProt Q9C0B0 (30-357, looked up)": "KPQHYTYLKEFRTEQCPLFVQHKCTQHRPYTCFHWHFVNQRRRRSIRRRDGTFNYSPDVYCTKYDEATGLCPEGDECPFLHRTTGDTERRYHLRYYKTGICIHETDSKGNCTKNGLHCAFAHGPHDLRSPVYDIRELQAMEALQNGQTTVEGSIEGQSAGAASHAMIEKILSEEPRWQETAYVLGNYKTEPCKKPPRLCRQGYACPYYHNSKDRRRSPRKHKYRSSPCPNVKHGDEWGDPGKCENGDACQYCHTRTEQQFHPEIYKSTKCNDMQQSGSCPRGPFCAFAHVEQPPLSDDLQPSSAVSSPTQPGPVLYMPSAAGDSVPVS"}
{"Oligonucleotide": "UCUUUUUCCUUCCUUAUUUACUCCUUCCUUCCUUCUUUUCUUUCAUUUUUUUUUUUUUUGUAGUUGUUGUUACCCACGCCAUUUUACGUCUCCUUCACUGAAGGGCUAGAGUUUUAACUU", "bound/input enrichment": "2.86 ratio"}
{"Oligonucleotide": "CUGCUGAUUCACUCAUUGGAAGAGCUGCGCACAUAGCUGUUCUUGAUUCAGAAAUAUUUUUAGAGAAAUUCUUUCUAGUUGCUGCCCUCAAAUAUUUUCAGUAGAAUAAAAAACAUUGUU", "bound/input enrichment": "0.76 ratio"}
{"Oligonucleotide": "UUAUUCAGUCUUCCAUGUAGGGUCGGCCUCAGAUCUAUAGGAUUUAUGACAAAUGUAUUAUAUCUAGUUGAGUUUAAUAUUUUUUUAUUAGCCUGUAAAUAAAGAUGGCAUCUUCUACAU", "bound/input enrichment": "0.753 ratio"}
{"Oligonucleotide": "UUCAGGCACAACUGACUGGUUCACAGCACUCCUUACAUAGUUAUCUGUCAAAUGCAAGUGUAGUUAAUUUUCAGGAAACAACCAGGCAGUCAUCUUUAUCCUGUAGCCCAAUUGGAGAUU", "bound/input enrichment": "1.66 ratio"}
{"Oligonucleotide": "UUACAGUCAUUGAUGGACUCUAUUUUUUUAUUAUUACUUGGACCUUGGUCGUUUUUAUACUAGCAAAAUGUCUUGUUUUGAUUUGUGUUUUUUUUGGGGGGGGGUGGGGAGGGAGUGAAU", "bound/input enrichment": "2.26 ratio"}
{"Oligonucleotide": "CUCAUUUCCAGGUUGGACCUACUGGAAAAGUCGUAGGAAUUGACCACAUUAAAGAGCUGGUAGACGACUCAAUAAAUAACGUCAGAAAGGACGAUCCGAUGCUUCUGUCUUCAGGGAGAG", "bound/input enrichment": "0.623 ratio"}
{"note": "A few entries again (set 3):"}
{"target": "PhoP, residues 12 14 15 18 19 AYFRS (Escherichia coli, UniProt P23836)", "fold induction": 2.79}
{"target": "PhoP, residues 12 14 15 18 19 SFCSL (Escherichia coli, UniProt P23836)", "fold induction": 9.78}
{"target": "PhoP, residues 12 14 15 18 19 HHYTI (Escherichia coli, UniProt P23836)", "fold induction": 10.1}
